{"data": "Published values of several laboratories", "target": "Serine/threonine-protein kinase pim-1 (PIM1, Homo sapiens, UniProt P11309)", "note": "Protocols differ between the studies behind these lines. “And” joins repeats or separate records; there may be more than shown."}
{"Structure (SMILES)": "NC(=O)[C@@H](O)C[C@H]1CCc2sc3ncnc(O[C@H]4CC[C@H](N5CCOCC5)CC4)c3c21", "test": "enzyme activity, inhibitor", "conditions": "10 µM", "measurement": "inhibition", "value": "11%"}
{"Structure (SMILES)": "Cc1cccc(-c2ccc3nc(NC(=O)C4CCOCC4)nn3c2)c1", "test": "enzyme activity, Dundee kinase panel", "conditions": "10 µM", "measurement": "remaining activity", "value": "99%"}
{"Structure (SMILES)": "CNC(=O)C1CCN(c2cc(C)c(F)cc2NC(=O)c2ccc(-c3cc(O)ccc3C)c(C)c2)CC1", "test": "binding, competition with immobilised ligand", "conditions": "1 µM", "measurement": "remaining binding", "value": "68%"}
{"Structure (SMILES)": "CC(C)=CC1OC(C)(C)C2C=C3C(=O)C(Cl)=CC(O)C3C3C(O)C4OC4C(=O)C132 (centres unmarked)", "test": "cell-free assay, competition with immobilised ligand", "conditions": "10 µM", "measurement": "remaining binding", "value": "100%"}
{"Structure (SMILES)": "O=C(O)CCC(=O)c1cccc(NS(=O)(=O)c2c[nH]c3ncccc23)c1", "test": "kinase activity, radiometric", "conditions": "10 µM", "measurement": "remaining activity", "value": "92%"}
{"Structure (SMILES)": "COc1cc(Nc2nccc(-c3cnn4nc(OC)ccc34)n2)cc(C(F)(F)F)c1", "test": "binding, competition with immobilised ligand", "conditions": "1 µM", "measurement": "remaining binding", "value": "100%"}
{"Structure (SMILES)": "C=CC(=O)Nc1cccc(-c2cnc3[nH]cc(C(=O)NC(C)(C)C)c3n2)c1", "test": "enzyme activity, inhibitor", "conditions": "0.1 µM", "measurement": "inhibition", "value": "1%"}
{"Structure (SMILES)": "C=CC(=O)N1CCCC(n2c(=O)c3ncccc3n(Cc3ccc(Oc4ccccc4)cc3)c2=O)C1 (centres unmarked)", "test": "cell-free assay, competition with immobilised ligand", "conditions": "1 µM", "measurement": "remaining binding", "value": "100%"}
{"Structure (SMILES)": "CC(=O)N1c2ccc(-c3ccc(CNC(=O)c4cn5cc(-c6cnc(N)nc6)nc(N6CCOCC6)c5n4)cc3)cc2CC[C@@H]1C", "test": "KINOMEscan", "conditions": "10 µM", "measurement": "remaining binding", "value": "92%"}
{"Structure (SMILES)": "COc1ccc(NC(=O)Nc2ccc3c(c2)C(=O)N(C(C)CO)CC(C)C(CN(C)Cc2ccc4c(c2)OCO4)O3)cc1 (centres unmarked)", "test": "kinase activity, KinaseProfiler", "conditions": "0.03 µM, species human", "scale": "reference: control", "measurement": "remaining activity", "value": "87%"}
{"Structure (SMILES)": "Fc1cncc(-c2ccc3[nH]c4ncnc(N[C@H]5CC[C@H](N6CCOCC6)CC5)c4c3c2)c1", "test": "enzyme activity, radiometric", "conditions": "1 µM", "measurement": "inhibition", "value": "> 98%"}
{"Structure (SMILES)": "O=C=[N][Ru-4]123([n]4c5ccc(O)cc5c5c6c(c7cc(F)c[n+]1c7c54)C(=O)NC6=O)[S+]1CC[S+]2CC[S+]3CC1 (centres unmarked)", "test": "enzyme activity", "conditions": "100 nM, human enzyme, with: 10 µM ATP", "scale": "reference: untreated", "measurement": "remaining activity", "value": "31%"}
{"Structure (SMILES)": "c1ccc2c(Nc3cc(C4CCC4)[nH]n3)nc(Nc3ccc4nc[nH]c4c3)nc2c1", "test": "enzyme activity, inhibitor", "conditions": "0.25 µM", "measurement": "remaining activity", "value": "97%"}
{"Structure (SMILES)": "C=C1CCCCCCCCCC(CO)C1=O (centres unmarked)", "test": "cell-free assay, competition with immobilised ligand", "conditions": "10 µM", "measurement": "remaining binding", "value": "100%"}
{"Structure (SMILES)": "CCC1C(COc2nccc3cc(C(N)=O)c(OC)cc23)NC(=O)C1F (centres unmarked)", "test": "enzyme activity, inhibitor, radiometric", "conditions": "1 µM", "measurement": "inhibition", "value": "12%"}
{"Structure (SMILES)": "Cc1ccc(C)c(-c2ccc3nc(NC(=O)C4CCCCC4)nn3c2)c1", "test": "enzyme activity, Dundee kinase panel", "conditions": "10 µM", "measurement": "remaining activity", "value": "78%"}
{"Structure (SMILES)": "Cc1cccc(O[C@H]2CCC[C@@H](C(C)CNCc3ccncc3)C2)c1 (relative stereo)", "test": "enzyme activity, inhibitor", "conditions": "10 µM", "measurement": "inhibition", "value": "-1%"}
{"Structure (SMILES)": "CNS(=O)(=O)Nc1nccc(Cc2c(C)c3ccc(Oc4ncccc4F)cc3oc2=O)c1F", "test": "binding, competition with immobilised ligand", "conditions": "10 µM", "measurement": "remaining binding", "value": "91%"}
{"Structure (SMILES)": "Cc1[nH]nc2c1N=C(c1ccccc1Cl)c1cnc(N3CCOCC3)cc1N2", "test": "enzyme activity, inhibitor", "conditions": "0.5 µM", "measurement": "inhibition", "value": "-2.9%"}
{"Structure (SMILES)": "Nc1nc(Nc2ccccc2)sc1C(=O)c1ccccc1", "test": "enzyme activity, inhibitor", "conditions": "10 µM", "measurement": "remaining activity", "value": "71%"}
{"Structure (SMILES)": "Nc1ncc2c(n1)-c1c([nH]c3ccc(C4=CCOCC4)cc13)CCC2", "test": "binding, competition with immobilised ligand", "conditions": "1 µM", "measurement": "remaining binding", "value": "100%"}
{"Structure (SMILES)": "CN1CCN(Cc2ccc(NC(=O)c3cccc(C#Cc4cnc(N)c5ncccc45)c3)cc2C(F)(F)F)CC1", "test": "cell-free assay, competition with immobilised ligand", "conditions": "50 nM", "measurement": "remaining binding", "value": "77%"}
{"Structure (SMILES)": "COc1cc(-n2cc3cc(F)cc(C(N)=O)c3n2)cc(Cl)c1C1CC(O)(CCO)Cc2ccccc21 (centres unmarked)", "test": "enzyme activity, inhibitor", "conditions": "10 µM", "measurement": "inhibition", "value": "0.78%"}
{"Structure (SMILES)": "COCC12C(=O)NC3C4(C(OC)CC1O)C1CC5(O)C(OC)C(O)C(OC(C)=O)(C1C5OC(=O)c1ccccc1)C3(O)C(OC)C24 (centres unmarked)", "test": "kinase activity, inhibitor, ProQinase kinase profiling", "conditions": "25 µM", "scale": "reference: control", "measurement": "remaining activity", "value": "101% and 94%"}
{"Structure (SMILES)": "Cn1cc(-c2ccc3[nH]c4nccc(N[C@H]5CC[C@H](N6CCOCC6)CC5)c4c3c2)cn1", "test": "enzyme activity, inhibitor, radiometric", "conditions": "1 µM", "measurement": "inhibition", "value": "92%"}
{"Structure (SMILES)": "COc1ccc(O)cc1-c1c[nH]c2ncc(-c3cncc(C(=O)N(C)C)c3)cc12", "test": "binding, competition with immobilised ligand", "conditions": "0.2 µM", "measurement": "inhibition", "value": "-1.98%"}
{"note": "Excerpt of the above:"}
{"Structure (SMILES)": "Cc1cccc(O[C@H]2CCC[C@@H](C(C)CNCc3ccncc3)C2)c1 (relative stereo)", "test": "enzyme activity, inhibitor", "conditions": "10 µM", "measurement": "inhibition", "value": "-1%"}
{"Structure (SMILES)": "Cn1cc(-c2ccc3[nH]c4nccc(N[C@H]5CC[C@H](N6CCOCC6)CC5)c4c3c2)cn1", "test": "enzyme activity, inhibitor, radiometric", "conditions": "1 µM", "measurement": "inhibition", "value": "92%"}
